Measured values pooled from the literature.
A part holds a random share of what one study measured. Changes are numbered by the printed parent chain.

Set 1 — method: RNA Bind-n-Seq; molecule type: RNA; matrix: in vitro; concentration: 365 nM; relative to: no-protein control; reading: higher = stronger binding
Target: RNA binding protein fox-1 homolog 2, RRM domain, GST-SBP tag (RBFOX2, Homo sapiens, UniProt O43251-10, residues 100-194)
Notes: natural RNA segment, single round, ends assumed
Shared flanks, not repeated: GGGAGUUCUACAGUCCGACGAUC … UGGAAUUCUCGGGUGCCAA
Residues (chain): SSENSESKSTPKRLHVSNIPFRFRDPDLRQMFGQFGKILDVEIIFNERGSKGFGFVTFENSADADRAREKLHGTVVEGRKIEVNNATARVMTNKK
Oligonucleotide	RBNS enrichment (R)
CAUCAACUUCUUGGUGAAUUUGACAGGCAAGAAGAUGACAUUCACUUAGUGACAUUAUGUGUGACAGAAUUAAAUGACCGGGAAGAAAACGAAAACCACUUUCCAGUAAU	0.297
UUGUUGAAUGACUCCUUUUGGAAAGUUUAAACUCUGACAUGGCAUUGCCCUGGAAGUCUUGCCCCAUCAUUUAACAAGGAACUCAAGUAGGAAAUGAGUGACAUCAAGUC	0.317
AUGCCUGAUGAAAGCUUUGGGGCCCUCACAGAUGCACAACUCAAGUGCUGAUUCUAUCACUUAUCUACCAGCUCUGUGACCUUGAACAAGCCGCUUAACCUUGCUAAGCC	0.405
UAUUUAAUUUUUUGCCACAUAUUUAUUUAAAGGCGAGCAAUAUUUUCUUGGUCACAAUAUUUUUUAGUGGAAUUCCUCUCAAGGUUUUUAUACUCCUGUGUAAUAAGACU	0.621
AUUUAUUAUUAAUUUAUUGGGGUGACCUUCUUGGGGACUCGGGGGCUGGUCUGAUGGAACUGUGUAUUUAUUUAAAACUCUGGUGAUAAAAAUAAAGCUGUCUGAACUGU	0.721
AGCCAGAUUUCAUUUCUAUUCUUGUUUUAUGUGCCAAACCCCAAAGUGCAUUGGGCCUGAAUCUCUGAACACUGUAGACCCAUUAGAAGGAAGAUUGUUCUGACCGUCAC	0.625
GUAGGGAGACAUUAAACCCACACCAAAUCAUGAGGGGCUGAGGACCCCCAAUCUUCUUCUCUAGGUCGCCAAUCCCACAGGCUGUACAGCUCAGUUCCCUAUGUUUAUGC	1.75
UGGGCCACCGCUGACUGUGCUCCCCACUACCCCUGAGGAAGAUGGGGGCAAGAAGACCAUGUUCCCUGCCUGUUCCCCCAGCUGCUUCUCCCAUCUUUUCUCUCUGUUCU	1.88

Set 2 — method: RNA Bind-n-Seq; molecule type: RNA; matrix: in vitro; concentration: not given; relative to: input RNA pool; reading: higher = stronger binding
Target: RING finger protein unkempt homolog, zinc fingers 1-6, GST-SBP tag (UNK, Homo sapiens, UniProt Q9C0B0, residues 30-357)
Notes: RNA with constant flanks, human and mouse sites, ends assumed
Shared flanks, not repeated: GGGAGUUCUACAGUCCGACGAUC … CAACAGAGGAUUGAGCAUCA
Target sequence (chain): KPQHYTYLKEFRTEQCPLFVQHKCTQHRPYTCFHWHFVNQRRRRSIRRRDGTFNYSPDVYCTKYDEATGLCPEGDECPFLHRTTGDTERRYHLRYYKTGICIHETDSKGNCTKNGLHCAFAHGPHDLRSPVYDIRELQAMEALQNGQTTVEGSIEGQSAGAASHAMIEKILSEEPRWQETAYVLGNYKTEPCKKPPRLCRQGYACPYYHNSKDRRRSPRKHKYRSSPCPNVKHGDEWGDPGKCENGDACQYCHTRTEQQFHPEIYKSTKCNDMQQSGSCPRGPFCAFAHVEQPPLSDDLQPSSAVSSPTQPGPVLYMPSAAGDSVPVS
Oligonucleotide	bound/input enrichment [ratio]
AAGAAAUCGAGAGUCCGAGCCCAGCAUAUUGUGCCCUGUACCAUAUCCCAGCUGCUUUCUGCUACUCUGACUGAUGAAGUGUUCAGAAUUGGAGAUGUCGAGAUUUCACAGGUCACUAUU	0.106
CUGAUAAAUGGUUUUGGAUCUUCUUCAGAGGGUUCCUCAGAGAAGCAAUCAAACUCCACUCUUUCUUUUGACUGGAGCCAACCAAGUGUUGUGUUUCAGGAUGACUCUUUAGAGUUAAAA	0.101
ACUGUGGCAUAUACAGAGCAAAAAAUGACCAGUGGCAAAAUUAAAAAGUUUAUCCAGGAAAACAUUUUUGGUAUCUGCCCUCACAUGACAGAAGACAAUAAAGAUUUGAUACAGGGCAAG	0.636
CAUUCGAAGGUUAAUGAUGAUUGUGAUGUUUAGGAAUGUUUGUCUCAGCCACAGUUCCUUCAUAGCUUUUCCAAAAUGAAUUGGGAAAAAAAAAUCGUAUAGCAGUCUUAAAGCUUAGUA	2.51
UAAGAGUUUUGCUGUUAACUCCUUAAGAGGGCUUUAAAGCCUUUUAUAUUAAGUGCCAUACAACUUCAGAUGCCUUCUGAAUACUGAACACAAGUGUAAUAUUAUAGUUCAUUAAAUGUC	0.457
CAGAUGCUGCAUAACAUGAAGGGACAGUUUGCUGAGCAUCUUCUUGGAGCUGGAUUUGUAAGCAGUAGAAGUCCCAAAGAUCCAAAAGCUAAUAUAAAUUCAGAUAAUGAGAAGAUAAUU	0.141
UGUCAUUAAAAUUAAGGUUUAUAUUGUGAAGCUUUUUUGAAAUUUUACUUUUUUUUGAGAGUUUUGCUCUGUCACCCAGGCUGGAGUGAGGUGGUACAAUCUCGGCUCACUGCAACCUCC	0.498
GACAAAGAGGCUCUGACAGAGGAGAAGUGCCUCCCACGUCAGAACCGUUACGAUGGGCAGGUAGCUGUAUUUGGGUCAGACUUUCAGGAGAAGCUGAGCAAGCAAAAGUACUUCCUGGUG	0.0612

Set 3 — method: DHFR PCA, deep sequencing; matrix: yeast; with: (+)-ABA 200 µM; relative to: wild-type fitted maximum; reading: higher = stronger binding
Target: ABI1, truncated, D143A, DHFR fusion (Arabidopsis thaliana)
Notes: methotrexate growth selection, single substitutions
Starting sequence: PYL1, truncated, DHFR fusion (Arabidopsis thaliana); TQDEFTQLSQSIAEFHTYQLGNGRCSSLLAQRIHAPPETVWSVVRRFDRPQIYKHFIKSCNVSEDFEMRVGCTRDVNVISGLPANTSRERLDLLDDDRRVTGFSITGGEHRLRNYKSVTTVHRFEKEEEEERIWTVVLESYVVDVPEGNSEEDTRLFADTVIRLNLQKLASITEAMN; partner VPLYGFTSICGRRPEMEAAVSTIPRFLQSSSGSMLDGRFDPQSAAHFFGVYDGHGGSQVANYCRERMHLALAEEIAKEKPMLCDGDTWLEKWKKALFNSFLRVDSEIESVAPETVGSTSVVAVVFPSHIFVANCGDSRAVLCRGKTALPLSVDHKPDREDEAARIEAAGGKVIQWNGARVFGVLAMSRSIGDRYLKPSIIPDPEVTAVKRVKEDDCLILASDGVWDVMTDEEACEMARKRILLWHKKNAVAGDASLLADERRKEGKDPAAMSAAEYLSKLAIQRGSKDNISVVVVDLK
Variant	relative binding score
S80D	44.6%
S171H	95.3%
G23W	78.9%
S87L	7.4%
L112D	-15.3%
E129P	107%
G108Y	21.5%
S63H	102%

Mixed results
Structure (SMILES)	cell line	test	conditions	endpoint	result
Cn1cncc1[C@@](O)(COc1ccc(C#N)cc1-c1ccc(OC(F)(F)F)cc1)c1ccc(C#N)cc1	HEK293T	high-content imaging	10 µM, 24 h	cells with healthy nuclei	64%

Some of these lines once more (set 3):
Variant	relative binding score
S87L	7.4%
L112D	-15.3%
